Measurements pooled from the literature.
Parts stem from different laboratories: compare values within a part only.

Study 1 — technique: RNA Bind-n-Seq; molecule type: RNA; medium: in vitro; tested at: 90 pmol; setting: 4-mer, random 30-nt RNA, single round; added: 3 µM DMDA-PatA, 2 mM ADP, 2 mM phosphate; baseline: input library; direction: higher = stronger binding
Target: Eukaryotic initiation factor 4A-I (EIF4A1, Homo sapiens, UniProt P60842, residues 1-406, full length assumed)
Chain of UniProt P60842 (whole entry, looked up): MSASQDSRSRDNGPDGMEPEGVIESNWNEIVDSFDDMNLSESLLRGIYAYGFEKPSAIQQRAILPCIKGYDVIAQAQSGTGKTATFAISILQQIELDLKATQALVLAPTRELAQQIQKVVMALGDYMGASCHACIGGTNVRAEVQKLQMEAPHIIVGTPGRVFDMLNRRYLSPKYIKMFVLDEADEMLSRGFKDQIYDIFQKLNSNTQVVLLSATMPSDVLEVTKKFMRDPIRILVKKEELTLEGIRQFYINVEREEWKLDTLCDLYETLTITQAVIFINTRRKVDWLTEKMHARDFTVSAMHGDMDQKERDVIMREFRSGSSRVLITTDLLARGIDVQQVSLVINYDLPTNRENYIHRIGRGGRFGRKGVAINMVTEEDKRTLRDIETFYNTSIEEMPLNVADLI
Sequence	4-mer enrichment
CUGC	0.731 fold
UGUG	1.9 fold
CAUG	0.819 fold
AGCC	0.577 fold
AUGG	1.09 fold
CUUC	0.568 fold
UGCG	1.66 fold
GUAC	0.71 fold

Study 2 — technique: competition protein-binding microarray; molecule type: double-stranded DNA, one strand shown; medium: in vitro; tested at: 2 µM; added: Pho4 competitor, 0.05 µM; direction: higher = stronger binding; shared flanks, not repeated: … GTCTTGATTCGCTTGACGCTGCTG
Target: Centromere-binding protein 1, full length, His-tagged (CBF1, Saccharomyces cerevisiae, UniProt P17106, residues 1-351)
Chain of UniProt P17106 (whole entry, looked up): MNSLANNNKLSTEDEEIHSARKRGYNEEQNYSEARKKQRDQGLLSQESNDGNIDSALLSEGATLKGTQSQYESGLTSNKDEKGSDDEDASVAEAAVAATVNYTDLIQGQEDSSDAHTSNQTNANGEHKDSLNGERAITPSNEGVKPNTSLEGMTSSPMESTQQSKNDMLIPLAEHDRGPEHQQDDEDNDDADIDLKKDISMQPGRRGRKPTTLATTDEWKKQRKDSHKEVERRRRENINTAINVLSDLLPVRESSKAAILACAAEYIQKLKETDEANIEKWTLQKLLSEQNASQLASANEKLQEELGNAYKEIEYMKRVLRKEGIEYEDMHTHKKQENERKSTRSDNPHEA
Setting: whole 60-bp probe, lowest competitor level
Sequence	fluorescence intensity [a.u.]
TTGGTCCAGTTCTCGCCCGTGATGGGAGAACAAGTA	100
TCTAGCATTTCCATACAGGTGATAGTATCAAATTGT	117
GTCTTGTCTCATTGCCACGTGTTTTTCCCCACTTCA	1130
AGACAAGGCAACAAAGAAATGTCGTTTTTAATTTTT	84.5
TACAGAGGAGATAAAGGCGTGCCAGCAATTGAAGAG	92.5
TTTTAAGCCGCAATACGCGTGCGGACTTTTCACTGG	69.1
CGGGGTTAAGTTTTTCACGTGGCCTGCTTGCAGCAG	670
CTTTAAGTGCCGGGACAAGTTCCTGGTTATCGCGTT	56.6

Study 3 — technique: RNA Bind-n-Seq; molecule type: RNA; medium: in vitro; tested at: 20 nM; setting: 6-mer, flanks averaged, single round; added: 150 mM LiCl; baseline: input library; direction: higher = stronger binding
Target: TAR DNA-binding protein 43, full length, His tag (TARDBP, Homo sapiens, UniProt Q13148, residues 1-414)
Sequence	6-mer enrichment (R)
UCAAAG	0.821
UCACAG	0.82
UGCGAU	0.954
AAAAAU	0.989
CUGGCA	0.909
GUUGCU	1.07
AUGGAU	0.993
ACGUAA	0.828

Mixed results
Molecule	target	read-out	molecule type	tested at	endpoint	value
MTFPVSLEY	HLA class I histocompatibility antigen, A alpha chain, allele A*80:01 (Homo sapiens, UniProt P04439)	peptide-MHC binding	peptide	concentration not given	binding	active

Excerpt of the above (mixed results):
Molecule	target	read-out	molecule type	tested at	endpoint	value
MTFPVSLEY	HLA class I histocompatibility antigen, A alpha chain, allele A*80:01 (Homo sapiens, UniProt P04439)	peptide-MHC binding	peptide	concentration not given	binding	active
